Experimental data collected from several papers.
Protocols differ between the studies behind these lines.
Method: steady-state kinetics
B1: protein (Danio rerio, UniProt F1QXD3); chain MALSRALRCCQRIFSWIPVIIISSVVLWSYYAYVFELCFVTLSNNLERVTYLLIFHVCFIMFCWTYWKAIFTPPSTPTKKFHLSYTDKERYEMEERPEVQKQILVDIAKKLPIFTRAQSGAIRFCDRCQVIKPDRCHHCSVCETCVLKMDHHCPWVNNCVGFSNYKFFLLFLSYSMIYCVFIASTVFQYFLKFWVGDLPNGPAKFHVLFLLFVALMFFVSLMFLFGYHCWLVAKNRSTLEAFSPPVFQNGPDRNGFNVGLSKNLRQVFGEHKKLWFIPVFTSQGDGHYFPLRTLRESENPLLANEEKWVEDGGSDEESADENGSSLLIRTES
B2: UGT1A9 (Homo sapiens, UniProt O60656); chain GKLLVVPMDGSHWFTMRSVVEKLILRGHEVVVVMPEVSWQLGRSLNCTVKTYSTSYTLEDLDREFKAFAHAQWKAQVRSIYSLLMGSYNDIFDLFFSNCRSLFKDKKLVEYLKESSFDAVFLDPFDNCGLIVAKYFSLPSVVFARGILCHYLEEGAQCPAPLSYVPRILLGFSDAMTFKERVRNHIMHLEEHLLCHRFFKNALEIASEILQTPVTEYDLYSHTSIWLLRTDFVLDYPKPVMPNMIFIGGINCHQGKPLPMEFEAYINASGEHGIVVFSLGSMVSEIPEKKAMAIADALGKIPQTVLWRYTGTRPSNLANNTILVKWLPQNDLLGHPMTRAFITHAGSHGVYESICNGVPMVMMPLFGDQMDNAKRMETKGAGVTLNVLEMTSEDLENALKAVINDKSYKENIMRLSSLHKDRPVEPLDLAVFWVEFVMRHKGAPHLRPAAHDLTWYQYHSLDVIGFLLAVVLTVAFITFKCCAYGYRKCLGKKGRVKKAHKSKTH
B3: vioC (Streptomyces vinaceus, UniProt Q6WZB0); chain MTESPTTHHGAAPPDSVATPVRPWSEFRLTPAEAAAAAALAARCAQRYDETDGPEFLLDAPVIAHELPRRLRTFMARARLDAWPHALVVRGNPVDDAALGSTPVHWRTARTPGSRPLSFLLMLYAGLLGDVFGWATQQDGRVVTDVLPIKGGEHTLVSSSSRQELGWHTEDAFSPYRADYVGLLSLRNPDGVATTLAGVPLDDLDERTLDVLFQERFLIRPDDSHLQVNNSTAQQGRVEFEGIAQAADRPEPVAILTGHRAAPHLRVDGDFSAPAEGDEEAAAALGTLRKLIDASLYELVLDQGDVAFIDNRRAVHGRRAFQPRYDGRDRWLKRINITRDLHRSRKAWAGDSRVLGQR
B4: putA D779Y (Bradyrhizobium diazoefficiens, UniProt Q89E26); chain MPNIPPPFTAPYAPDDAEIAARLLPASHLSPPQEARIHRTATRLIEAIRKRDDRLGGVEDMLREFALSTKEGLALMVLAEALLRVPDARTADQFIEDKLGEGDFIHHETKSTAFLVNASAWALGLSARVIQPGETPDGTIGRLVKRLGAPAVRTATRQAMRLMGNHFVLGETIEQALERGKPRSGQKTRYSFDMLGEGARTAADARRYFDAYASAIETIGKAAGNHALPDRPGISVKLSALHPRFEAISRARVMVELVPQLLDLAQRAKAHDLNFTVDAEEADRLELSLDVIAATLADPSLKGWDGFGLAIQAYQKRASAVIDYVDALARAHDRKLMVRLVKGAYWDTEIKRAQERGLDGYPVFTRKAMTDLNYVACASKLLALRPRIFPQFATHNALTVATVLEMAEGSSGFEFQRLHGMGEALYEQLAKDHADIAYRTYAPVGSHRDLLAYLVRRLLENGANSSFVAQAADYRVPVPALLQRPADAIVRPQAAAHPRIPLPCDLFAPERRNSRGVEFGARTALDQLLTDVKAETGDLKPIADATPDQAHAAVAAARAGFAGWSRTPAGIRAAALEQAAHLLESRSAHFIALLQREGGKTLDDALSELREAADFCRYYAAQGRKLFGSETAMPGPTGESNALTMRGRGVFVAISPWNFPLAIFLGQVTAALMAGNSVVAKPAEQTPRIAREAVALLHEAGIPKSALYLVTGDGRIGAALTAHPDIAGVVFTGSTEVARSINRALAAKDGPIVPLIAETGGINAMIADATALPEQVADYVVTSAFRSAGQRCSALRLLFVQEDVADRMIEMVAGAARELKIGDPSDVATHVGPVIDVEAKQRLDAHIARMKTEARLHFAGPAPEGCFVAPHIFELTEAGQLTEEVFGPILHVVRYRPENLERVLRAIERTGYGLTLGVHSRIDDSIEAIIDRVQVGNIYVNRNMIGAVVGVQPFGGNGLSGTGPKAGGPHYLARFATEQTVTINTAAAGGNAALLAGEE
B5: SLC22A14 (Homo sapiens, UniProt Q9Y267); chain MAGEENFKEELRSQDASRNLNQHEVAGHPHSWSLEMLLRRLRAVHTKQDDKFANLLDAVGEFGTFQQRLVALTFIPSIMSAFFMFADHFVFTAQKPYCNTSWILAVGPHLSKAEQLNLTIPQAPNGSFLTCFMYLPVPWNLDSIIQFGLNDTDTCQDGWIYPDAKKRSLINEFDLVCGMETKKDTAQIMFMAGLPIGSLIFRLITDKMGRYPAILLSLLGLIIFGFGTAFMNSFHLYLFFRFGISQSVVGYAISSISLATEWLVGEHRAHAIILGHCFFAVGAVLLTGIAYSLPHWQLLFLVGGILVIPFISYIWILPESPRWLMMKGKVKEAKQVLCYAASVNKKTIPSNLLDELQLPRKKVTRASVLDFCKNRQLCKVTLVMSCVWFTVSYTYFTLSLRMRELGVSVHFRHVVPSIMEVPARLCCIFLLQQIGRKWSLAVTLLQAIIWCLLLLFLPEGEDGLRLKWPRCPATELKSMTILVLMLREFSLAATVTVFFLYTAELLPTVLRATGLGLVSLASVAGAILSLTIISQTPSLLPIFLCCVLAIVAFSLSSLLPETRDQPLSESLNHSSQIRNKVKDMKTKETSSDDV
B6: speck (Drosophila melanogaster, UniProt Q94521); chain MEDALTVSGKPAACPVDQDCPYTIELIQPEDGEAVIAMLKTFFFKDEPLNTFLDLGECKELEKYSLKPLPDNCSYKAVNKKGEIIGVFLNGLMRRPSPDDVPEKAADSCEHPKFKKILSLMDHVEEQFNIFDVYPDEELILDGKILSVDTNYRGLGIAGRLTERAYEYMRENGINVYHVLCSSHYSARVMEKLGFHEVFRMQFADYKPQGEVVFKPAAPHVGIQVMAKEVGPAKAAQTKL
B7: ycjR (Escherichia coli, UniProt P76044); chain MKIGTQNQAFFPENILEKFRYIKEMGFDGFEIDGKLLVNNIEEVKAAIKETGLPVTTACGGYDGWIGDFIEERRLNGLKQIERILEALAEVGGKGIVVPAAWGMFTFRLPPMTSPRSLDGDRKMVSDSLRVLEQVAARTGTVVYLEPLNRYQDHMINTLADARRYIVENDLKHVQIIGDFYHMNIEEDNLAQALHDNRDLLGHVHIADNHRYQPGSGTLDFHALFEQLRADNYQGYVVYEGRIRAEDPAQAYRDSLAWLRTC
Sequence of UniProt Q9Y6L6 (whole entry, looked up): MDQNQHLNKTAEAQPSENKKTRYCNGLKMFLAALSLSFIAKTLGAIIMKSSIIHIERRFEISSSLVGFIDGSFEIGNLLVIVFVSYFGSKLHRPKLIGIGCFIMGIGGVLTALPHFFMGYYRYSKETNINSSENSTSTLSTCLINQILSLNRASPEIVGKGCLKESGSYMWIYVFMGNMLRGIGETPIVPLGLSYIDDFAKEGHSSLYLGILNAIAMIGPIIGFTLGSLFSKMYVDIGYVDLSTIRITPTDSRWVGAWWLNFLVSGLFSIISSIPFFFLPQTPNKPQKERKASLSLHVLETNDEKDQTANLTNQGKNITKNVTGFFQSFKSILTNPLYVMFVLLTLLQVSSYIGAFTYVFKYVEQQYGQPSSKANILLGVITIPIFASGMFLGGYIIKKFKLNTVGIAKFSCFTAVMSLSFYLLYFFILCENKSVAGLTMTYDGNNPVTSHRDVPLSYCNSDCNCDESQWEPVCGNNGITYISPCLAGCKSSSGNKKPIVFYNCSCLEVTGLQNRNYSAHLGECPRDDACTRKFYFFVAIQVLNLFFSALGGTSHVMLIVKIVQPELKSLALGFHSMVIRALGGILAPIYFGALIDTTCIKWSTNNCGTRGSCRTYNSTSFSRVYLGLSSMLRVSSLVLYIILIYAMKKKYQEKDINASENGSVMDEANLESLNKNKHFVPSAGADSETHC
Sequence of UniProt I0JWN7 (whole entry, looked up): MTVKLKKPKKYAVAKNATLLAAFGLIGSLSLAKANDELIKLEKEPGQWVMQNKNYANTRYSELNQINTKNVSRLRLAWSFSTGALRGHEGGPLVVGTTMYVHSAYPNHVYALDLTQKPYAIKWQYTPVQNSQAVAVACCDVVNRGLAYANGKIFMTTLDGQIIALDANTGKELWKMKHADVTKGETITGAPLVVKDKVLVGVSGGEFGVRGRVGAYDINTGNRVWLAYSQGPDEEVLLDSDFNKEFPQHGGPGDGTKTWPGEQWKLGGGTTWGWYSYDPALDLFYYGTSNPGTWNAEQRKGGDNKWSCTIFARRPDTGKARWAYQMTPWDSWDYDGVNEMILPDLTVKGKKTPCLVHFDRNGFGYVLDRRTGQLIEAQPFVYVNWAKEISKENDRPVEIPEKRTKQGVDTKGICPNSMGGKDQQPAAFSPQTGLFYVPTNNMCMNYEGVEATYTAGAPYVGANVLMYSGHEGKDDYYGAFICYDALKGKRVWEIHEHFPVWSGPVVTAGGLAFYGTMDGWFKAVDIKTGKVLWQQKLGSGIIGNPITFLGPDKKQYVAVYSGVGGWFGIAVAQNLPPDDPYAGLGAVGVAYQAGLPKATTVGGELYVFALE

The Km of `B1 (protein)` is reported as 10 µM (CCCCCCCCCCCCCCCC(=O)SCCNC(=O)CCNC(=O)[C@H](O)C(C)(C)COP(=O)(O)OP(=O)(O)OC[C@H]1O[C@@H](n2cnc3c(N)ncnc32)[C@H](O)[C@@H]1OP(=O)(O)O; pH 6.8, 30 °C).
`B2 (UGT1A9)` gave a Km of 82.8 µM (O=c1ccoc2cc(O)ccc12; pH 7.4, 37 °C).
For `B3 (vioC)`, the Km was 3400 µM (N=C(N)NCCC[C@H](N)C(=O)O; pH 8, 30 °C, apparent, with: alpha-ketoglutarate 1.0 mM).
`SLCO1B1 (Homo sapiens, UniProt Q9Y6L6)` gave a Km of 0.43 µM (CC(=O)O[C@@]12CO[C@@H]1C[C@H](O)[C@@]1(C)C(=O)[C@H](O)C3=C(C)[C@@H](OC(=O)[C@H](O)[C@@H](NC(=O)OC(C)(C)C)c4ccccc4)C[C@@](O)([C@@H](OC(=O)c4ccccc4)[C@H]21)C3(C)C; 37 °C, not purified).
`CT1526 (Chlorobium tepidum, UniProt Q8KC98)` has a Km of 18 µM (Nc1nc2c(ncn2[C@@H]2O[C@H](COP(=O)(O)OP(=O)(O)OP(=O)(O)O)[C@@H](O)[C@H]2O)c(=O)[nH]1; pH 7.5, 25 °C, NaCl 150 mM, no nanobody).
`B4 (putA D779Y)` gave a Km of 200 µM (O=C(O)[C@@H]1CCC=N1; pH 7.5, 23 °C).
The Km of `enzyme (Caenorhabditis elegans, UniProt Q19834)` is reported as 40.1 µM (Nc1ccccc1C(=O)C[C@H](N)C(=O)O; not purified).
For `B5 (SLC22A14)`, the Km was 0.778 µM (Cc1cc2nc3c(=O)[nH]c(=O)nc-3n(C[C@H](O)[C@H](O)[C@H](O)CO)c2cc1C; 37 °C, not purified).
`XoxF methanol dehydrogenase (Methylacidiphilum fumariolicum, UniProt I0JWN7)` has a Km of 3.62 µM (CO; pH 7.2, 45 °C, with: EuCl3 20 µM, PES 1 mM, DCPIP 80 µM).
`B6 (speck)` gave a Km of 430 µM (CC(=O)SCCNC(=O)CCNC(=O)[C@H](O)C(C)(C)COP(=O)(O)OP(=O)(O)OC[C@H]1O[C@@H](n2cnc3c(N)ncnc32)[C@H](O)[C@@H]1OP(=O)(O)O; pH 7.2, 30 °C).
`B7 (ycjR)` gave a Km of 31000 µM (CO[C@@H]1O[C@H](CO)[C@@H](O)C(=O)[C@H]1O; pH 8, 30 °C, with: MnCl2 0.5 mM, NADH 0.3 mM).

For quick reference, copied from above:
`B2 (UGT1A9)` gave a Km of 82.8 µM (O=c1ccoc2cc(O)ccc12; pH 7.4, 37 °C).
For `B3 (vioC)`, the Km was 3400 µM (N=C(N)NCCC[C@H](N)C(=O)O; pH 8, 30 °C, apparent, with: alpha-ketoglutarate 1.0 mM).
